Measurements gathered from unrelated publications.
“And” joins repeats or separate records; there may be more than shown. Numbers after ± are the reported error.

| SMILES | cell line | assay | system | conditions | scale | quantity | value |
| --- | --- | --- | --- | --- | --- | --- | --- |
| CCn1cc(-c2cc(Cn3ccoc3=N)cc3c2CCN([C@@H](C)c2cc(OC)ccn2)C3=O)c(C(F)(F)F)n1 | Pfeiffer | cell growth |  | 120 h |  | EC50 | 0.647 µM |
| CCCCc1nc(Cl)c(CO)n1Cc1ccc(-c2ccccc2-c2nn[nH]n2)cc1 | human PBMC | RNA-seq, measured: RHOBTB1 mRNA |  | 10 µg/mL, 24 h | relative to: untreated control | log2 fold change | -2.24 |
| CSc1cc(Oc2ccnc3[nH]c(=O)cnc23)ccc1NC(=O)Nc1cc(C(C)(C)C)nn1-c1ccccc1 | patient-derived cell line clone A | RPPA, measured: phosphorylated SAPK/JNK | human | 1 µM, 4 h | relative to: DMSO | phospho ratio | 0.64 |
| Cc1cccc(-c2[nH]c(CNc3ccccc3F)nc2-c2ccc3ncnn3c2)n1 | MM1.S | XTT |  | 0.8 µM |  | viability | 64% and 80% and 71% |
| Cc1nn(-c2nc3c(F)cc(F)cc3s2)c(O)c1C(c1ccc(C(F)(F)F)cc1)c1c(C)nn(-c2nc3c(F)cc(F)cc3s2)c1O | THP1-Dual | western blot |  | 40 µM, dose series, with: HT-DNA | relative to: DMSO | phospho-TBK1 to TBK1 ratio | 0.454 and 0.278 and 0.33 |
| CN(Cc1cnc2nc(N)nc(N)c2n1)c1ccc(C(=O)N[C@@H](CCC(=O)O)C(=O)O)cc1 | cells transfected with E247Q mutant |  |  | 0.5 µM, 3 h, pH 5.5, 37 °C |  | uptake | ~22.4% |
| COC(=O)COc1c(Cc2cc(C(C)(C)CC(C)(C)C)cc(-n3nc4ccccc4n3)c2OCC(=O)OC)cc(C(C)(C)CC(C)(C)C)cc1-n1nc2ccccc2n1 | Vero | MTT |  | 100 µM, 24 h |  | growth inhibition | 8.22 ± 0.66% |
| CCc1ccc(NC(=O)Nc2c[nH]c3ccccc23)cc1 | RAW-ISG | RT-qPCR, measured: IFNB1 |  | 10 µM, unit not given, with: poly(I:C) | relative to: vehicle | mRNA level | 1.33 and 1.14 and 0.93 |
| COc1cc(/C=C/C(=O)N2CCC=CC2=O)cc(OC)c1OC | MDA-MB-468 | qRT-PCR, measured: Bcl-2 |  | 30 µM, 6 h | relative to: time zero | mRNA expression | 85.3 ± 5.7% |
| CCCN1CCN(c2ccc3[nH]c(-c4ccc5[nH]c(-c6cc(OC)c(OC)c(OC)c6)nc5c4)nc3c2)CC1 | SNB-19 | SRB |  | 10 µM, 48 h |  | growth percent | 69.8% |
| CCOc1ccc(NC(=O)c2nc(S(=O)(=O)Cc3ccccc3F)ncc2Cl)cc1 | LDR | silenced CMV-GFP reporter derepression, qHTS |  |  |  | efficacy | 79% |
| CCCCCCCCCCCCCCCC(NCc1cccc(C)c1)=C1C(=O)OC(CO)C1=O (stereo not drawn) | G2-synchronized tsFT210 cells | flow cytometry |  | 5 µM, 4 h, 32 °C, release from G2 arrest |  | G1 phase cells | 63.5% |
| CCCCN1C[C@H](O)[C@@H](O)[C@@H](O)[C@H]1CO | sample F patient fibroblasts | Gb3 level lowering, LC-MS/MS, measured: Gb3 d18:1/20:0 |  | 216 h |  | IC50 | 8.8 µM |
| Cn1c(Nc2nc3ccc(C(F)(F)F)cc3s2)nc2cc(C(=O)NCCOCCO)ccc21 | SH-SY5Y | RNA-seq, measured: LIF mRNA |  | 5 µM, 5 h | relative to: untreated cells | fold change | 5.28 |
| Nc1ncnc2c1ncn2[C@@H]1O[C@H](CO)[C@@H](O)[C@H]1O | activated human T cells |  |  | 31.6 µM | higher = more proliferation | T cell proliferation | 12.6 a.u. and 7.5 a.u. and 8 a.u. |
| COc1cc(C[C@H]2COC(=O)[C@@H]2Cc2ccc(O)c(OC)c2)ccc1O | neuroblastoma M2 (−) | western blot |  | IC50 | relative to: untreated | PARP cleavage | increased |
| Cn1cc(Nc2nccc(-c3ccc4c(c3)CN(C3COC3)CC[C@H]4NC(=O)c3cn(C(C)(C)C)nn3)n2)cn1 | mouse splenic B cells | measured: Ceramide signalling |  | 30 mg/kg, IgD-activated in vivo | relative to: vehicle, direction not given | pathway activation z-score | -0.258 |
| O=C(/C=C/C=C/C=C/C1CCCCC1)NC1=C[C@@](O)(/C=C/C=C/C=C/C(=O)NC2=C(O)CCC2=O)[C@@H]2O[C@@H]2C1=O | KYSE-450 | cell growth, CellTiter-Glo |  | 78 h |  | GI50 | 18.4 µM |
| Cc1ccc(CNc2nc(Cl)nc3nc[nH]c23)o1 | HeLa | splicing reporter, measured: GLA |  | 10 µM, 18 h |  | GFP/RFP ratio | 0.48 |
| CC(C)NCC(O)c1ccc(O)c(O)c1 (stereo not drawn) | mouse ventricular cardiomyocytes |  |  | dose not given, 0 s |  | sarcomere length | 1.8 µm |
| COc1ccc(Nc2nc3c(S(=O)(=O)c4ccccc4)nnn3c3ccc(Cl)cc23)cc1 | LDR | silenced CMV-GFP reporter derepression, qHTS |  |  |  | efficacy | 40% |
| CCc1c(-c2ccccc2)c(-c2ccccc2)nn1-c1ccccc1-c1cccc(OCC(=O)O)c1 | mouse bone marrow macrophages | osteoclast differentiation, inhibitor, TRAP staining |  | 30 µM, with: M-CSF and RANKL |  | normalized response | 0% |
| COc1ccc2c(N(C)c3ccc(/C(C)=N/OCCN)cc3)c3c(Cl)coc3nc2c1 | RWPE-1 | immunoblot |  | 1 µM, 72 h, steroid-reduced medium |  | Bax protein increase | 100% |
| C=CC(=O)N1CCC[C@@H](n2nc(-c3ccc(Oc4ccccc4)cc3)c3c(N)ncnc32)C1 | REC-BTK^C481S | cell growth |  | 72 h |  | GI50 | 24.6 µM |

| SMILES | cell line | assay | system | conditions | scale | quantity | value |
| --- | --- | --- | --- | --- | --- | --- | --- |
| Cc1cc(Nc2ncc(Cl)c(Nc3ccccc3S(=O)(=O)C(C)C)n2)c(OC(C)C)cc1C1CCNCC1 | CLB-GE | phosphoproteomics LC-MS/MS, measured: BRD2 phosphorylation |  | 200 nM, 60 min | relative to: untreated | log2 fold change | -4.03 |
| CCNc1nc(Nc2ccc(F)c(Cl)c2)c2ccccc2n1 | Vero | MTT |  | 62.5 µg/mL |  | cytotoxicity | 0.24% |
| Cl.Cl.NCCNS(=O)(=O)c1ccc(Cl)c2ccncc12 | SK-OV-3 | ATP |  | 10 µM, 4 days, 3D U-bottom low-attachment | relative to: untreated | relative cell number | 114% |
| O=P1(C2CCCCC2)CCCCC1 | HaCaT | Annexin V-FITC/PI flow cytometry |  | IC50, 72 h |  | late apoptotic cells | 0.95% |
| CCn1cc(-c2cc(Cn3ccnc3)cc3c2CCN([C@H](c2cc(OC)ccn2)C2CC2)C3=O)c(C(F)(F)F)n1 | GSU | cell growth |  | 120 h |  | EC50 | 0.674 µM |
| CSCC[C@H](NC(=O)[C@H](Cc1ccc(OS(=O)(=O)O)cc1)NC(=O)[C@@H](N)CC(=O)O)C(=O)NCC(=O)N[C@@H](Cc1c[nH]c2ccccc12)C(=O)N[C@@H](CCSC)C(=O)N[C@@H](CC(=O)O)C(=O)N[C@@H](Cc1ccccc1)C(N)=O | HEK293T control virus | agonist, calcium mobilization |  | 10000 nM, no receptor expressed | higher = more calcium release | calcium response | 0.0894 a.u. and 0.0848 a.u. |
| O=C1N=C(N2CCCCC2)S/C1=C\c1cc(Cl)ccc1O | NG108-cl | clomeleon fluorescence, measured: intracellular chloride reduction |  | 5 h |  | EC50 | inactive |
| CC/C(=N\NC(=O)NCc1cccc(O)c1)c1ccc(O)c(C)c1O | SK-OV-3 | Western blot | 3D culture in gellan gum | 10 µM, 1 h, unit not given | relative to: β-actin | TAZ protein level | 0.97 ± 0.31 |
| CC[C@H](C)[C@H](NC(=O)[C@H](CCCCN)NC(=O)[C@@H](NC(=O)[C@H](CCCNC(=N)N)NC(=O)[C@@H](NC(=O)[C@@H](CCCNC(=N)N)NC(=O)[C@@H](CCCNC(=N)N)NC(=O)[C@@H](CCCNC(=N)N)NC(=O)[C@@H](CCCNC(=N)N)NC(=O)[C@@H](CCCNC(=N)N)NC(=O)[C@H](N)CCCNC(=N)N)[C@@H](C)O)[C@@H](C)O)C(=O)N[C@@H](CC(=O)O)C(=O)N[C@@H](Cc1c[nH]c2ccccc12)C(=O)NC(C)(C)C(=O)N[C@@H](CCCCN)C(=O)N[C@H](C(=O)N[C@@H](CC(C)C)C(=O)NC(C)(C)C(=O)N[C@@H](CCCCN)C(=O)NCCCCCC(=O)NCCCC[C@H](NC(=O)CCCCCNC(=O)[C@H](CCCCN)NC(=O)C(C)(C)NC(=O)[C@H](CC(C)C)NC(=O)[C@@H](NC(=O)[C@H](CCCCN)NC(=O)C(C)(C)NC(=O)[C@H](Cc1c[nH]c2ccccc12)NC(=O)[C@H](CC(=O)O)NC(=O)[C@@H](NC(=O)[C@H](CCCCN)NC(=O)[C@@H](NC(=O)[C@H](CCCNC(=N)N)NC(=O)[C@@H](NC(=O)[C@@H](CCCNC(=N)N)NC(=O)[C@@H](CCCNC(=N)N)NC(=O)[C@@H](CCCNC(=N)N)NC(=O)[C@@H](CCCNC(=N)N)NC(=O)[C@@H](CCCNC(=N)N)NC(=O)[C@H](N)CCCNC(=N)N)[C@@H](C)O)[C@@H](C)O)[C@@H](C)CC)[C@@H](C)CC)C(N)=O)[C@@H](C)CC | SK-MEL-5 | Western blot |  | 10 µM, within 0.5 to 2 h |  | Akt, ERK, Stat3 phosphorylation | inhibited |
| Cn1cc(C2=C(c3ccc(Cl)cc3Cl)C(=O)NC2=O)c2ccccc21 | primary human cortical neurons | Western blot |  | 5 µM, 48 h, with: HIV Tat 100 ng/mL and maraviroc 2.5 µM | relative to: Tat-treated cells, increase | NFL protein level | 2.27 fold |
| COc1cc2ncnc(Nc3ccc(Oc4ccccc4)c(C)c3C)c2cc1OC.Cl | MeWo (NF1) | cell viability, resazurin |  | 3 µM, 72 h, with: trametinib |  | average fractional effect | 18% |
| O=S(=O)(NNc1nnc(Cl)c2ccccc12)c1ccc(F)cc1 | Vero | MTT |  | 500 µg/mL |  | cytotoxicity | 95.2% |
| Cc1nc(N(Cc2ccccc2)c2ccc3c(c2)/C(=C/c2ccccc2)C(=O)N3Cc2ccccc2)c2ccccc2n1 (mixture of isomers) | LLC | PI flow cytometry |  | 2.0 µM |  | cells in G0/G1 phase | 53% |
| O[C@H]1[C@H]2c3cc4c(cc3CN3CCC(=C[C@@H]1O)[C@H]23)OCO4 | LDR | silenced CMV-GFP reporter derepression, qHTS |  |  |  | efficacy | 28% |
| Cn1cc(-c2ccc(-c3cncc(Cl)c3N3CCC4(CCNC4=O)CC3)cc2)cn1 | COLO 205 | microarray, measured: BBC3 |  | concentration not given, 2 h, gene set PUMA | relative to: untreated cells | fold change in expression | 2.64 |
| O=C(C[C@@H](C(F)F)n1ccc(F)n1)N1CCC(O)(Cn2cnc3c(cnn3-c3ccc(F)cc3)c2=O)CC1 | CHP-212 parental (wild-type USP7) | PI flow cytometry |  | 0.3 µM, 24 h |  | cells in G2/M phase | 13.8% and 7.64% and 10.9% |
| CC(C)C[C@H](NC(=O)N1CCCCCC1)C(=O)N[C@H](Cc1cn(C)c2ccccc12)C(=O)N[C@H](Cc1ccc(O)cc1)C(=O)O | 22Rv1 intact cells, vector | radioligand binding |  |  |  | Kd | 0.000121 µM |
| COc1cc2ncnc(Nc3ccc(Oc4ccccc4)cc3C)c2cc1OC.O=C(O)C(F)(F)F | MeWo (NF1) | cell viability, resazurin |  | 3 µM, 72 h, with: trametinib 0 nM |  | average fractional effect | 20% |
| O=C(O)CCCCCN1C(=O)/C(=C\c2ccc(-c3ccc(Cl)cc3)o2)SC1=S | LDR | silenced CMV-GFP reporter derepression, qHTS |  |  |  | efficacy | 113% |
| c1ccc2[nH]ccc2c1 | HCT-8 | RNA-seq, measured: DNAJB9 |  | concentration not given |  | mRNA level, LS mean | 29.1 counts per million |
| COc1cnc2cccc(N3CCc4c(cc(Cn5ccnc5C)cc4-c4cn(C)nc4C(F)(F)F)C3=O)c2c1 | SHP77 | cell growth, inhibitor |  | 120 h |  | EC50 | > 30 µM |
| Cc1cc(NS(=O)(=O)c2ccc(NC(=O)/C(C#N)=C/c3ccc(N4CCCCC4)cc3)cc2)no1 | HCT-116 | qRT-PCR, measured: Bcl-2 |  | concentration not given | relative to: untreated | mRNA level decrease | 3.3 fold |
| CC(=O)c1nn(-c2ccc(Cl)cc2)/c(=N/N=C(\C)c2ccc(NC(=O)c3ccc(C)cc3)cc2)s1 | MCF7 |  |  | 2.5 µM |  | toxicity | 92.1% |
| Cc1ccc(NC(=O)c2c(C)nc3sc(C(=O)NC4CCCC4)c(N)c3c2-c2ccco2)c(C)c1 | LDR | silenced CMV-GFP reporter derepression, qHTS |  |  |  | efficacy | 38% |

Repeated from above:
| SMILES | cell line | assay | system | conditions | scale | quantity | value |
| --- | --- | --- | --- | --- | --- | --- | --- |
| Nc1ncnc2c1ncn2[C@@H]1O[C@H](CO)[C@@H](O)[C@H]1O | activated human T cells |  |  | 31.6 µM | higher = more proliferation | T cell proliferation | 12.6 a.u. and 7.5 a.u. and 8 a.u. |
| COc1cc(C[C@H]2COC(=O)[C@@H]2Cc2ccc(O)c(OC)c2)ccc1O | neuroblastoma M2 (−) | western blot |  | IC50 | relative to: untreated | PARP cleavage | increased |
| Cn1cc(Nc2nccc(-c3ccc4c(c3)CN(C3COC3)CC[C@H]4NC(=O)c3cn(C(C)(C)C)nn3)n2)cn1 | mouse splenic B cells | measured: Ceramide signalling |  | 30 mg/kg, IgD-activated in vivo | relative to: vehicle, direction not given | pathway activation z-score | -0.258 |
